# Assay results from different studies.
# Protocols differ between the studies behind these lines. “And” joins repeats or separate records; there may be more than shown. ± gives the spread as reported.
Compound,tested on,test,test system,conditions,scale,measurement,value
Cc1[nH]c(C)c(-c2ccc(OCCn3cnc(Cl)c3Cl)cc2)c(=O)c1Br,Plasmodium falciparum,"parasite growth, SYBR Green",3D7 DHODH E182D,72 h,,EC50,3610 ± 230 nM
CC(C)[C@@H]1NC(=O)[C@@H](CCCCN)NC(=O)[C@H](CCCN)NC(=O)[C@@H](CC(=O)O)NC(=O)[C@H](C)NC(=O)[C@H](Cc2c[nH]c3ccccc23)NC(=O)[C@@H](Cc2ccccc2)NC1=O,Naegleria fowleri,,,trophozoites,,IC50,> 16 µg/mL
CCCCC1(CCCC)CN(c2ccccc2)c2cc(SC)c(OCC(=O)N[C@@H](C(=O)NCC(=O)O)c3ccccc3)cc2S(=O)(=O)C1,,measured: LDL cholesterol,"human, serum","2.5 mg once daily, day 2",,serum LDL-C,108 mg/dL
C[C@H]1O[C@@H](O[C@H]2CC[C@@]3(C)[C@@H](CC[C@]4(C)[C@@H]3C=C[C@]35OC[C@@]6(CCC(C)(C)C[C@H]63)[C@@H](O)C[C@]54C)[C@]2(C)CO)[C@H](O)[C@@H](O[C@@H]2O[C@H](CO)[C@@H](O)[C@H](O)[C@H]2O)[C@H]1O,,,"Mus musculus, pair-fed, AAV8-TBG-Null vector, plasma","oral, high dose, 5 h",,γ-GT activity,28.5 U/L and 25.7 U/L and 22.7 U/L and 22.2 U/L and 22 U/L
Cc1cc(NC(=O)c2cc(S(=O)(=O)N3CCCCC3)ccc2C)no1,Plasmodium falciparum,"parasite growth, SYBR Green",,72 h,baseline: 3D7-E182D over 3D7,EC50 ratio,5.4
O=C1NC(=O)C(C2C3=C(CCCC3=O)Oc3ccc([N+](=O)[O-])cc32)C(=O)N1 (stereo not shown),mouse preadipocytes,"qPCR, measured: Pref-1",,"IC20, 14 days, adipogenic induction",baseline: untreated cells,mRNA level,decreased
CC(=O)c1c(Nc2c(C)cc(C)cc2C)oc(C)cc1=O,Plasmodium falciparum,"parasite growth, SYBR Green",3D7 wild type,72 h,,EC50,1480 ± 700 nM
O=C(CCCN1CC=C(n2c(=O)[nH]c3ccccc32)CC1)c1ccc(F)cc1,Plasmodium falciparum,,HB3,,,IC50,2510 nM
NCCCC[C@@H]1NC(=O)[C@@H](CCCN)NC(=O)[C@@H](Cc2ccccc2)NC(=O)[C@H](Cc2ccccc2)NC(=O)CNC1=O,Naegleria fowleri,,,trophozoites,,IC90,> 16 µg/mL
CCNC(=O)c1ccc(-n2nc(C)cc2-c2ccccc2)cc1,Plasmodium falciparum,"parasite growth, SYBR Green",3D7 wild type,72 h,,EC50,1980 ± 710 nM
CC(C)[C@@H]1NC(=O)[C@@H](Cc2ccccc2)NC(=O)[C@H](CCCNC(=N)N)NC(=O)[C@@H]([C@H](C)O)NC(=O)[C@H](CC(N)=O)NC(=O)[C@@H](C(C)C)NC1=O,Acanthamoeba castellanii,,,trophozoites,,IC50,> 16 µg/mL
CCOC(=O)Nc1ccc(NCc2ccc(F)cc2)nc1N,Plasmodium falciparum,,7G8,,,IC50,2510 nM
O=C1C(O)=C([C@H]2CC[C@H](c3ccc(Cl)cc3)CC2)C(=O)c2ccccc21,Plasmodium falciparum,parasite growth,Dd2,,,EC50,0.284 ± 0.15 nM
C#CCN(C)[C@H](C)Cc1ccccc1,,footprint test,MPTP-induced Parkinson's disease mouse model,10 mg/kg,,corridor crossing time,5.62 s and 5.04 s and 5.58 s and 5.93 s and 7.98 s and 6.52 s and 3.59 s
O=C1CC[C@@]2(O)[C@H]3Cc4ccc(O)c5c4[C@@]2(CCN3CC2CC2)[C@H]1O5,H+/organic cation antiporter,cell uptake,hCMEC/D3,,,Km,92.4 µM
O=C(NC1CCCCCCC1)c1cc(-c2ccc(F)cc2)c[nH]1,Vero,,,48 h,,IC50,36.8 µg/mL
CC12CC3CC(C)(C1)CC(N)(C3)C2,Plasmodium falciparum,,7G8,,,IC50,10000 nM
COc1cc(CCC[P+](c2ccccc2)(c2ccccc2)c2ccccc2)c(OC)c2c1OCO2.[I-],NCI-H226,SRB,,,,LC50,> -4 log M
Nc1ncnc2c1ncn2[C@@H]1O[C@@H]2COP(=O)(O)O[C@H]3[C@@H](O)[C@H](n4cnc5c(=O)[nH]cnc54)O[C@@H]3COP(=O)(O)O[C@H]2[C@H]1O,HFF-1,"RNA sequencing, measured: Cross-presentation",,upregulated pathway,baseline: Zika virus alone,pathway fold enrichment,6.75
Nc1ncc(-c2nc(N3CCOCC3)nc(N3CCOCC3)n2)c(C(F)F)n1,MeWo,,,72 h,,GI50,240 nM
NCCCC[C@H]1NC(=O)[C@H](Cc2ccccc2)NC(=O)[C@H](Cc2c[nH]c3ccccc23)NC(=O)[C@@H](Cc2ccccc2)NC(=O)[C@H](Cc2ccccc2)NC(=O)[C@@H](CCCN)NC(=O)[C@H](CCCN)NC1=O,Naegleria fowleri,,,trophozoites,,IC50,> 16 µg/mL
COc1ncccc1-c1c[nH]c(C(=O)NC2C3CC4CC(C3)CC2C4)c1 (stereo not shown),Vero,,,48 h,,IC50,11.8 µg/mL
N=C(N)NC(=O)Cc1c(Cl)cccc1Cl,Plasmodium falciparum,,7G8,,,IC50,5010 nM
C[C@]1(CO)Cc2ncn(-c3ccc(C#N)c(Cl)c3)c2C(=O)O1,,"aldosterone synthesis, inhibitor, measured: potassium","healthy Japanese adults, urine","40 mg, 0-24 h after first dose, multiple rising dose",,urinary excretion,32.3 mmol
COCC(=O)O[C@]1(CCN(C)CCCc2nc3ccccc3[nH]2)CCc2cc(F)ccc2[C@@H]1C(C)C,Plasmodium falciparum,,Dd2,,,IC50,1000 nM
COc1c(CCC[P+](c2ccccc2)(c2ccccc2)c2ccccc2)cc2c(c1OC)OCO2.[I-],NCI60 panel,SRB,,,,mean Log10GI50,-5.8 log M
Nc1ccn(C[C@@H](CO)OCP(=O)(O)O)c(=O)n1,Fowlpox virus,viral infection,CEF,200 µM,baseline: untreated,infection,62.3% and 46.1% and 45.3%
COc1c(C)c2c(c(O)c1C/C=C(\C)CCC(=O)O)C(=O)OC2,muscle cancer cell lines,cell proliferation,,average over lines,,IC50,1550 nM
C[C@@H]1CC[C@H]2[C@@H](C)C(=O)O[C@@H]3O[C@@]4(C)CC[C@@H]1[C@]32OO4,Plasmodium falciparum,,GB4,,,IC50,5 nM
CCN1CCN(C(=O)N[C@@H](C(=O)N[C@@H]2C(=O)N3[C@@H]2SC(C)(C)[C@@H]3C(=O)O)c2ccccc2)C(=O)C1=O,PBP3 Streptococcus pneumoniae,Bocillin-FL competition,live Streptococcus pneumoniae cells,"30 min, with: Bocillin-FL 600 nM",,kinact/KI,24000 ± 3500 M⁻¹ s⁻¹
COC(=O)[C@H]1[C@H]2C[C@@H]3c4[nH]c5cc(OC)ccc5c4CCN3C[C@H]2C[C@@H](OC(=O)c2cc(OC)c(OC)c(OC)c2)[C@@H]1OC,Plasmodium falciparum,,D10,,,IC50,2510 nM
CC[C@H](C)[C@@H]1NC(=O)[C@@H]2CCCN2C(=O)[C@H](CC(C)C)NC(=O)[C@H](CC(C)C)NC(=O)CNC(=O)[C@@H](NC(=O)[C@@H](NC(=O)[C@H](CC(=O)O)NC(=O)CNC(=O)[C@@H](NC(=O)[C@H](C)NC(=O)CNC(=O)[C@H](CCCCN)NC(=O)[C@H](CC(C)C)NC(=O)[C@H](CC(C)C)NC(=O)[C@H](CCCCN)NC(=O)CNC(=O)[C@@H](NC(=O)[C@@H](N)CC(C)C)C(C)C)C(C)C)C(C)C)CSSC[C@@H](C(=O)O)NC1=O,,"RNA-seq, measured: Klf2","mouse, traumatic brain injury model, frontal cortex and hippocampus",dose not given,baseline: TBI alone,log2 fold change,-1.47
CCCC1O[C@@H]2C[C@H]3[C@@H]4CCC5=CC(=O)C=C[C@]5(C)[C@H]4[C@@H](O)C[C@]3(C)[C@]2(C(=O)CO)O1 (stereo partly shown),Plasmodium falciparum,,Dd2,,,IC50,10000 nM
CCN(CC)CC#Cc1ccc2[nH]c(C)c(Cl)c(=O)c2c1,Plasmodium falciparum,"parasite growth, SYBR Green",3D7 wild type,72 h,,EC50,404 ± 88 nM

# Some of these lines once more:
Compound,tested on,test,test system,conditions,scale,measurement,value
CCCCC1(CCCC)CN(c2ccccc2)c2cc(SC)c(OCC(=O)N[C@@H](C(=O)NCC(=O)O)c3ccccc3)cc2S(=O)(=O)C1,,measured: LDL cholesterol,"human, serum","2.5 mg once daily, day 2",,serum LDL-C,108 mg/dL
O=C(NC1CCCCCCC1)c1cc(-c2ccc(F)cc2)c[nH]1,Vero,,,48 h,,IC50,36.8 µg/mL
COc1cc(CCC[P+](c2ccccc2)(c2ccccc2)c2ccccc2)c(OC)c2c1OCO2.[I-],NCI-H226,SRB,,,,LC50,> -4 log M
